# Assay results collected from several papers.
# CA9: Carbonic anhydrase 9 (CA9, Homo sapiens, UniProt Q16790)
# CSNK1A1: Casein kinase I isoform alpha (CSNK1A1, Homo sapiens, UniProt P48729)
# Sequence of UniProt P48729 (whole entry, looked up): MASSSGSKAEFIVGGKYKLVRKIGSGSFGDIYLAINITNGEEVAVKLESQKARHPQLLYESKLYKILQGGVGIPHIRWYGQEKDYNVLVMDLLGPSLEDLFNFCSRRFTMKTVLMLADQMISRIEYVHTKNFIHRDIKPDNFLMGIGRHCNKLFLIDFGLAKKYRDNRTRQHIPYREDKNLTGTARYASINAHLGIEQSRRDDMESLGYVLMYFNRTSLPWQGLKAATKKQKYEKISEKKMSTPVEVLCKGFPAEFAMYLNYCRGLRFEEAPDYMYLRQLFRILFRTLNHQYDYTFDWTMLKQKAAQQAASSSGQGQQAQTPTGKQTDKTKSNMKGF
# Sequence of UniProt Q8N8S7 (whole entry, looked up): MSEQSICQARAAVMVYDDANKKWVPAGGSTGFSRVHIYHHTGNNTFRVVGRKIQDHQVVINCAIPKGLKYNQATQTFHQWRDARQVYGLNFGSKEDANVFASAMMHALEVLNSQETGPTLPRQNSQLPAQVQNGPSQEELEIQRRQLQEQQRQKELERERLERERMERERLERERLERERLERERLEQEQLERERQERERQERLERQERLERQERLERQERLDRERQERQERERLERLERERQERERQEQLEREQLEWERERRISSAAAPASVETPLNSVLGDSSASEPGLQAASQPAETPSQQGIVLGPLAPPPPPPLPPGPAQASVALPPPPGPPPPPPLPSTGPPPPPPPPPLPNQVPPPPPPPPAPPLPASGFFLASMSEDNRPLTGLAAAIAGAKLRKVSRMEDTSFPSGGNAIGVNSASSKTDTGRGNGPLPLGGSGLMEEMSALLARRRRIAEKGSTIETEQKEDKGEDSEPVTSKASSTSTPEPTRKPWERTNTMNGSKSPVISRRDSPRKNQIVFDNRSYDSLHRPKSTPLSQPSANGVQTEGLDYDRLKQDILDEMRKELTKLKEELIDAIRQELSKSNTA
# Sequence of UniProt Q96PN8 (whole entry, looked up): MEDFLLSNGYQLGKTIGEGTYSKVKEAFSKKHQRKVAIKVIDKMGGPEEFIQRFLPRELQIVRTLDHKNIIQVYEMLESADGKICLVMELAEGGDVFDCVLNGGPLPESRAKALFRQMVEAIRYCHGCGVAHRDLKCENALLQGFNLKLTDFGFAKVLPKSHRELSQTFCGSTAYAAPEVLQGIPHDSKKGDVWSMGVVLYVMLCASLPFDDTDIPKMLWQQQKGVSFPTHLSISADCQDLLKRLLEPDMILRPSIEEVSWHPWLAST
# Sequence of UniProt Q99755 (whole entry, looked up): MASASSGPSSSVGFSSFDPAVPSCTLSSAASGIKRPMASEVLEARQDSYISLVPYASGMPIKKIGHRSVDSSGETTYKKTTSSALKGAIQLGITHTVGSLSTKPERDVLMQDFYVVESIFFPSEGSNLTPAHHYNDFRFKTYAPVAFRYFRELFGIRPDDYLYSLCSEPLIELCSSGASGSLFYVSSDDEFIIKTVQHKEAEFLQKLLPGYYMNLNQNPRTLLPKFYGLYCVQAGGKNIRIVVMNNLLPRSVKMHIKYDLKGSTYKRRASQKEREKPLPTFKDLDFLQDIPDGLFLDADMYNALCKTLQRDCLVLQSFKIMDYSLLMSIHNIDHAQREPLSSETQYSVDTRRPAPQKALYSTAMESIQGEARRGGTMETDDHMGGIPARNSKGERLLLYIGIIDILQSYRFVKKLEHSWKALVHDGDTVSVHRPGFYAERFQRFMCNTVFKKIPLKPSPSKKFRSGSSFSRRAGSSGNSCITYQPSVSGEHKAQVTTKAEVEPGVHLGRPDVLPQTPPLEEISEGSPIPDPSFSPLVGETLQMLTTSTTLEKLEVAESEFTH
# Sequence of UniProt Q9Y6Y9 (whole entry, looked up): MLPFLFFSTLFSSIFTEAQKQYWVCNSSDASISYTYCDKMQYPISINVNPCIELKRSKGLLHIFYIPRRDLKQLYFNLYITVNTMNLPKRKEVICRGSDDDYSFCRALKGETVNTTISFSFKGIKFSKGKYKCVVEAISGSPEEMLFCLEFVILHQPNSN
# Sequence of UniProt P0DMS8 (whole entry, unmodified, looked up): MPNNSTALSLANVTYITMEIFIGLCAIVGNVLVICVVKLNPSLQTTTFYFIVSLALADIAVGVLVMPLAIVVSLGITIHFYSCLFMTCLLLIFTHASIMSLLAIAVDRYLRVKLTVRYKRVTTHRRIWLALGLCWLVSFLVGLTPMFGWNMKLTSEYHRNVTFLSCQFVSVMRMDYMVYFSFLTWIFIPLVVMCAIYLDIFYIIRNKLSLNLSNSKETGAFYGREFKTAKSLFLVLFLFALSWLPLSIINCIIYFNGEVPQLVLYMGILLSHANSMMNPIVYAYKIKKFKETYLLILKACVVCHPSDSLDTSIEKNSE
# Sequence of UniProt P07339 (whole entry, looked up): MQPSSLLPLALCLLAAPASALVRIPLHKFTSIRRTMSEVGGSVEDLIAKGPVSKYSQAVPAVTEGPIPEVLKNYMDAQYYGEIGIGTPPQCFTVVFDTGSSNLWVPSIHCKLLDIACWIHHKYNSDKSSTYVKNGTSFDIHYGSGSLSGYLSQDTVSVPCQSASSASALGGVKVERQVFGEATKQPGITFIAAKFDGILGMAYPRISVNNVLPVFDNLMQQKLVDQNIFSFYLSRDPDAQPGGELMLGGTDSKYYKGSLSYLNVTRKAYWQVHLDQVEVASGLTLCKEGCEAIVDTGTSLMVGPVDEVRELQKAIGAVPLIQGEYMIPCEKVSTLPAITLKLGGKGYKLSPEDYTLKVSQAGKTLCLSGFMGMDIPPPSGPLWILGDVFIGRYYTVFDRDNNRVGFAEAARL
# Sequence of UniProt P09622 (whole entry, unmodified, looked up): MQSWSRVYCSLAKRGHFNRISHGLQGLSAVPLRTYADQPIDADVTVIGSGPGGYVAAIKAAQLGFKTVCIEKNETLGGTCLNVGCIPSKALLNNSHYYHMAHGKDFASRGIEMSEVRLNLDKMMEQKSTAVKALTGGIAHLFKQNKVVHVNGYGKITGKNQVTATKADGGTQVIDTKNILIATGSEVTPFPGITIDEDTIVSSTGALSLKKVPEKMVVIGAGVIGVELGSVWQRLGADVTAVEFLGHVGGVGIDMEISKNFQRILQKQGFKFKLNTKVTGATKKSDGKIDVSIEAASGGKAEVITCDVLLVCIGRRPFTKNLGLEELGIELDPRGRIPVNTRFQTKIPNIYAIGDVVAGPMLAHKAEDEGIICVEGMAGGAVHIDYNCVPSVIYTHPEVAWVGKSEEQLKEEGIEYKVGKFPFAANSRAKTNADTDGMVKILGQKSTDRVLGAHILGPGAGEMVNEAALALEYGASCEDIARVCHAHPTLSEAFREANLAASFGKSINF
# Sequence of UniProt Q47319 (whole entry, looked up): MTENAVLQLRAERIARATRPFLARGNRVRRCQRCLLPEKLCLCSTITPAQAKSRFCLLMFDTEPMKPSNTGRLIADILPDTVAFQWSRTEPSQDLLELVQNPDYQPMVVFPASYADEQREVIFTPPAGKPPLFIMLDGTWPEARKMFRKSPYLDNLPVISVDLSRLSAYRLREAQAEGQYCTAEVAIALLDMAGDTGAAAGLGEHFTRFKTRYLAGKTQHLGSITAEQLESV
# Sequence of UniProt Q9H2K8 (whole entry, looked up): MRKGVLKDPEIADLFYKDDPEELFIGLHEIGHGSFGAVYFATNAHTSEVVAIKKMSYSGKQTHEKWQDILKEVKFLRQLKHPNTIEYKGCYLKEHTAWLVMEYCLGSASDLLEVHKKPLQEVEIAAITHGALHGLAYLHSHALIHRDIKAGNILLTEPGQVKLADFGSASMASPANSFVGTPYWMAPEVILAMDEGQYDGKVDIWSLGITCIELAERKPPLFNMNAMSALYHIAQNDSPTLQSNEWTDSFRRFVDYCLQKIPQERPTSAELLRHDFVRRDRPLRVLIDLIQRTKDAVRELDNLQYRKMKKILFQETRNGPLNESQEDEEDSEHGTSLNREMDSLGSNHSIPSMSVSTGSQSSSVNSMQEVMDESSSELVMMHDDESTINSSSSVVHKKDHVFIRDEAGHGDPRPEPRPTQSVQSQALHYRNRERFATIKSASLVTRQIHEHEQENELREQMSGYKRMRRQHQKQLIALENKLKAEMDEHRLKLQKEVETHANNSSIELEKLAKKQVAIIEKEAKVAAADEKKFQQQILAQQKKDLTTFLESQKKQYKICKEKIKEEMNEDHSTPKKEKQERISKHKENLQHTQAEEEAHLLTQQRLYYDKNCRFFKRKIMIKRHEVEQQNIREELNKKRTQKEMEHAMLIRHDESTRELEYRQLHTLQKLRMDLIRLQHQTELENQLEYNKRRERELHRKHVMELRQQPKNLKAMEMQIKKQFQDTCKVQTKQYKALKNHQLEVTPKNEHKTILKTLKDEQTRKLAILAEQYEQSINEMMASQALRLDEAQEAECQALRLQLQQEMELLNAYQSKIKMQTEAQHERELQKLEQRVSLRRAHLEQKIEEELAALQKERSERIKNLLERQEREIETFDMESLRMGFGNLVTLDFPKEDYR
# Sequence of UniProt P48730 (whole entry, looked up): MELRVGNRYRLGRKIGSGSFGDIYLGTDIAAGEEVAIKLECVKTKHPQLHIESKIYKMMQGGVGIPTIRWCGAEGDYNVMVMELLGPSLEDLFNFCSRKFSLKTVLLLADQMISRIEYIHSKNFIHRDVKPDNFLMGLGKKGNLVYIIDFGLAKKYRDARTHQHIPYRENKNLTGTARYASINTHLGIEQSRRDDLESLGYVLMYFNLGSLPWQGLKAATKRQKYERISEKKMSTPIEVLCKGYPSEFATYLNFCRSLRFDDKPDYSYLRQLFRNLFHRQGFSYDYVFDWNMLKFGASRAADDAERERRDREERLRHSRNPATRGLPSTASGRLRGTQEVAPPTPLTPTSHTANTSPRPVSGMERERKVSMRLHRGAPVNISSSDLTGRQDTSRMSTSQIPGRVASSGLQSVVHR
# Sequence of UniProt P00698 (whole entry, looked up): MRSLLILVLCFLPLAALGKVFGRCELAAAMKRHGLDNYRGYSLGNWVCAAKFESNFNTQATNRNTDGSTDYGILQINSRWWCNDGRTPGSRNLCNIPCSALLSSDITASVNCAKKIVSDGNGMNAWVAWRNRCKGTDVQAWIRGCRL
Structure (SMILES),target or system,test,system,conditions,measurement,result
C1=C/COCc2cc(ccc2OCCN2CCCC2)Nc2nccc(n2)-c2cccc(c2)COC/1,"NEK10 (Homo sapiens, UniProt Q6ZWH5)",binding,,0.1 µM,remaining binding,58%
Cc1nn(-c2ccc(S(N)(=O)=O)cc2)c(C)c1CCC(=O)Nc1ccccc1C(=O)NCc1cn(C)nn1,CA9,"enzyme activity, inhibitor",,,IC50,0.0389 µM
CCn1cnc(C(=O)NC)c1C(=O)NC,CSNK1A1,"binding, SPR",,,Kd,> 50 µM
C[S+](CC[C@H](N)C(=O)O)C[C@H]1O[C@@H](n2cnc3c(N)ncnc32)[C@H](O)[C@@H]1O (stereo partly drawn),"tapT (Escherichia coli, UniProt Q47319)","binding, ITC",,,Kd,57.7 µM
C[C@H]1[C@H](OC(=O)CCC(=O)O)O[C@@H]2O[C@@]3(C)CC[C@H]4[C@H](C)CC[C@@H]1[C@@]24OO3,"LY96 (Homo sapiens, UniProt Q9Y6Y9)","binding, SPR",,,Kd,3.2 µM
O=c1nc(N2CCN(CC3CCCCC3)CC2)sc2c([N+](=O)[O-])cc(C(F)(F)F)cc12,,,"CD-1 mouse, plasma","oral, 100 mg/kg, 4.98 min",concentration,245 ng/mL
C=CC1=C(C)C2=Cc3c(C=C)c(C)c4[n]3[Fe][n]3c(c(C)c(CCC(=O)O)c3=CC3=NC(=C4)C(C)=C3CCC(=O)O)=CC1=N2,"HCAR2 (Homo sapiens, UniProt Q8TDS4)",binding,,,Kd,~1 µM
Nc1ncnc2c1ncn2[C@@H]1O[C@H](COP(=O)(O)OP(=O)(O)OP(=O)(O)O)[C@@H](O)[C@H]1O,"dnaA (Escherichia coli, UniProt P03004, V292M)",binding,,,Kd,0.04 µM
Cc1cc([C@@H](C)Nc2ccccc2C(=O)O)c2nc(N3CCC(F)(F)CC3)c(C#N)c(=O)n2c1,"PTK2 (Homo sapiens, UniProt Q05397)","binding, competition with immobilised ligand",,1 µM,remaining binding,92%
Cc1noc(NS(=O)(=O)c2ccc(N=NN(C)O)cc2)c1C,,"DPPH scavenging, absorbance",,180 µg/mL,inhibition,22.8%
CCn1c2ccccc2c2cc(Nc3ccnc(NCCCN4CCOCC4)n3)ccc21,CSNK1A1,"binding, SPR",,,Kd,> 50 µM
C=CC(=O)N1CCC(COCC(=O)N2CCN(c3nc(-c4cnc(N)nc4C(F)F)nc(N4CCOC[C@@H]4C)n3)CC2)CC1,"PIP5K1A (Homo sapiens, UniProt Q99755)","binding, competition with immobilised ligand",,1 µM,remaining binding,100%
c1cc(CN2CCCNCCNCCCNCC2)ccc1CN1CCCNCCNCCCNCC1,CSNK1A1,"binding, SPR",,,Kd,> 50 µM
Cc1cnc(-c2ccc(-c3ccc(NC(=O)Nc4c(F)cc(F)cc4F)cc3F)c3c2C(=O)NC3)[nH]1,"TEK (Homo sapiens, UniProt Q02763)","binding, competition with immobilised ligand",,,Kd,0.018 µM
CN(C)c1ncnc2c1ncn2[C@@H]1O[C@H](CO)[C@@H](O)[C@H]1O,"ADORA3 (Homo sapiens, UniProt P0DMS8, V169N)","G protein activation, agonist",,,EC50,5.6 µM
N#Cc1ccc(O)cc1F,CSNK1A1,"binding, SPR",,,Kd,> 50 µM
CC(NCC1(c2cccc(-c3cn(C)nn3)c2)CCOCC1)C(=O)Nc1ccc(S(N)(=O)=O)cc1 (stereo not drawn),CA9,"enzyme activity, inhibitor",,,IC50,0.117 µM
CC(C)CC(=O)N[C@H](C(=O)N[C@H](C(=O)N[C@@H](CC(C)C)[C@@H](O)CC(=O)N[C@@H](C)C(=O)N[C@@H](CC(C)C)[C@@H](O)CC(=O)NCCOCCOCCC(=O)NCCCC[C@H](NC(=O)CN1CCN(CC(=O)O)CCN(CC(=O)O)CC1)C(=O)O)C(C)C)C(C)C,"Cathepsin D (CTSD, Homo sapiens, UniProt P07339)","binding, SPR",,,Kd,7.85 µM
OC[C@H]1OC(O)[C@H](O)[C@@H](O)[C@@H]1O (stereo partly drawn),"ATP-dependent RNA helicase DDX1 (Homo sapiens, UniProt Q92499)","binding, MST",,,Kd,129 µM
c1ccc(Nc2nc3c(s2)Cc2ccccc2-3)cc1,"CSNK1D (Homo sapiens, UniProt P48730)","binding, SPR",,,Kd,43.6 µM
O=[N+]([O-])c1ccc(O)c2ncccc12,"mcr1 (Escherichia coli, UniProt A0A0R6L508)","binding, SPR",,,Kd,7.6 µM
c1ccc(CNCc2ccc(CN3CCCNCCNCCCNCC3)cc2)nc1,CSNK1A1,"binding, SPR",,,Kd,> 50 µM
CNc1ncc2c(/C=C/C(=O)N3CCC(OC)CC3)nn(Cc3cccc(C(F)(F)F)c3)c2n1,"HIPK2 (Homo sapiens, UniProt Q9H2X6)","enzyme activity, inhibitor, radiometric",,1 µM,remaining activity,99%
CCCN1CCN(c2ccc(-c3cncc(Cl)c3N3CCC4(CCNC4=O)CC3)cc2)CC1,"MAP3K20 (Homo sapiens, UniProt Q9NYL2)",cell-free assay,,lysate,Kd,> 21.4 µM
Cc1cc(Nc2cc3ncccc3c(N[C@@H]3C[C@H]4CC[C@@H](C3)N4CCC#N)n2)n[nH]1,"TNK1 (Homo sapiens, UniProt Q13470)","binding, competition with immobilised ligand",,,Kd,0.051 µM
NC(=O)c1ccc[n+]([C@@H]2O[C@H](COP(=O)([O-])OP(=O)(O)OC[C@H]3O[C@@H](n4cnc5c(N)ncnc54)[C@H](O)[C@@H]3O)[C@@H](O)[C@H]2O)c1,"DLD (Homo sapiens, UniProt P09622, K430R)","binding, SPR",,,Kd,1.86 µM
COc1ccc([C@@H]2CC(=O)c3c(O)cc(O[C@@H]4O[C@H](CO)[C@@H](O)[C@H](O)[C@H]4O[C@@H]4O[C@@H](C)[C@H](O)[C@@H](O)[C@H]4O)cc3O2)cc1O,"IAPP (Homo sapiens, UniProt P10997)","binding, ITC",,,Kd,4.67 µM
Cn1cc(C(=O)Nc2cccc(C(=O)O)c2)ccc1=O,"Bromodomain-containing protein 4, BD1 (BRD4, Homo sapiens, UniProt O60885)","binding, competition with immobilised ligand",,,Kd,33 µM
COc1cc(-c2cncc3c2CN(C)Cc2cc(N4CCNCC4)ccc2-3)cc(OC)c1OC,"TAOK3 (Homo sapiens, UniProt Q9H2K8)","enzyme activity, inhibitor",,1 µM,remaining activity,97%
CC(=O)N[C@H]1[C@H](O[C@H]2[C@H](O)[C@@H](NC(C)=O)C(O)O[C@@H]2CO)O[C@H](CO)[C@@H](O[C@@H]2O[C@H](CO)[C@@H](O)[C@H](O)[C@H]2NC(C)=O)[C@@H]1O (stereo partly drawn),"Lysozyme C (LYZ, Gallus gallus, UniProt P00698)",binding,,,Kd,14.8 µM
CCCCC(=O)Nc1ccc(-c2ccc3ncn(CCC)c(=O)c3c2)cn1,"TSSK3 (Homo sapiens, UniProt Q96PN8)","binding, competition with immobilised ligand",,0.5 µM,remaining binding,80%
N#Cc1cncc2c1NCCC2,CSNK1A1,"binding, SPR",,,Kd,> 50 µM
CC(=O)NC(Cc1ccccc1Cl)C(=O)N1CCCC1C(=O)N1CCCC1C(=O)N1CCC2C=CC3C(C)CC(C(=O)O)N3C(=O)C21 (stereo not drawn),"Protein enabled homolog (ENAH, UniProt Q8N8S7)","binding, fluorescence",,,Kd,~0.3 µM

# For quick reference, copied from above:
Structure (SMILES),target or system,test,system,conditions,measurement,result
O=c1nc(N2CCN(CC3CCCCC3)CC2)sc2c([N+](=O)[O-])cc(C(F)(F)F)cc12,,,"CD-1 mouse, plasma","oral, 100 mg/kg, 4.98 min",concentration,245 ng/mL
c1ccc(Nc2nc3c(s2)Cc2ccccc2-3)cc1,"CSNK1D (Homo sapiens, UniProt P48730)","binding, SPR",,,Kd,43.6 µM
CC(NCC1(c2cccc(-c3cn(C)nn3)c2)CCOCC1)C(=O)Nc1ccc(S(N)(=O)=O)cc1 (stereo not drawn),CA9,"enzyme activity, inhibitor",,,IC50,0.117 µM
